Experimental data pooled from the literature.
Parts stem from different laboratories: compare values within a part only.
Chain of UniProt P41595 (whole entry, looked up): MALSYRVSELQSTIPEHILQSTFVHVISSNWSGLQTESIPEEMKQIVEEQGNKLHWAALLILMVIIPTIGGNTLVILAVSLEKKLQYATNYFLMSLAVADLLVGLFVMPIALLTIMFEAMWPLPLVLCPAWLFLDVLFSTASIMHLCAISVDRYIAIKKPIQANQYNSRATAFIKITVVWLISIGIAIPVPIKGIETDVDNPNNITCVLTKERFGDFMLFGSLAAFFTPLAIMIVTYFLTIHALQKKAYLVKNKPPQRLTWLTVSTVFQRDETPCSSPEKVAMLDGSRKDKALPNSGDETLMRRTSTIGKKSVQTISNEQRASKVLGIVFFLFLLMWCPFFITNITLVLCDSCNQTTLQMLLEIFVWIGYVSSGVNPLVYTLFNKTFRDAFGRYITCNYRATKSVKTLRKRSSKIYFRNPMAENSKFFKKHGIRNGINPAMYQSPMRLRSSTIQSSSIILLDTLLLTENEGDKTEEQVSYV
Chain of UniProt P46098 (whole entry, looked up): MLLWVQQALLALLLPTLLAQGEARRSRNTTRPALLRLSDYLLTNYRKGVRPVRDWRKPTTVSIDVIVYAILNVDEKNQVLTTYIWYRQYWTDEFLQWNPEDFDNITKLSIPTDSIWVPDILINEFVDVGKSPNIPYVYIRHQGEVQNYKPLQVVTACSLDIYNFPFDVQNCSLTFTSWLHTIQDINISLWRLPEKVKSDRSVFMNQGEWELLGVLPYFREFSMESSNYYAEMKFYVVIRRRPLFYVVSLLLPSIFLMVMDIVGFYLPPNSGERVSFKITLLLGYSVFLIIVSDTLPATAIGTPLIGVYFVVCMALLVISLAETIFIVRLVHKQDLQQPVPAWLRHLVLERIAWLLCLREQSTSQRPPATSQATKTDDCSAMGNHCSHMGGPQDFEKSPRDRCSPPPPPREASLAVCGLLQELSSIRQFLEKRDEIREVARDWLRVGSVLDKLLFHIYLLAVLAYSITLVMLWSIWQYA
Chain of UniProt P28221 (whole entry, looked up): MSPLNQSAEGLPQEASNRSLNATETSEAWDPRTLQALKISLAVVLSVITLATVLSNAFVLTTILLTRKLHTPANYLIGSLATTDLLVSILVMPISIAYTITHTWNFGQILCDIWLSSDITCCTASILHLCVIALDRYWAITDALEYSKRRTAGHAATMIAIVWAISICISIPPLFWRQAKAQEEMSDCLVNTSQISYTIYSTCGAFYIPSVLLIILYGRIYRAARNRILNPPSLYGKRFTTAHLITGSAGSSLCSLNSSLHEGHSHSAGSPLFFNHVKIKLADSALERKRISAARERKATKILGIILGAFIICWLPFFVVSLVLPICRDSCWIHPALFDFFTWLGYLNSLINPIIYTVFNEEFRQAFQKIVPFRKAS

Block 1
Target: Beta-1 adrenergic receptor (ADRB1, Homo sapiens, UniProt P08588)
Chain of UniProt P08588 (whole entry, looked up): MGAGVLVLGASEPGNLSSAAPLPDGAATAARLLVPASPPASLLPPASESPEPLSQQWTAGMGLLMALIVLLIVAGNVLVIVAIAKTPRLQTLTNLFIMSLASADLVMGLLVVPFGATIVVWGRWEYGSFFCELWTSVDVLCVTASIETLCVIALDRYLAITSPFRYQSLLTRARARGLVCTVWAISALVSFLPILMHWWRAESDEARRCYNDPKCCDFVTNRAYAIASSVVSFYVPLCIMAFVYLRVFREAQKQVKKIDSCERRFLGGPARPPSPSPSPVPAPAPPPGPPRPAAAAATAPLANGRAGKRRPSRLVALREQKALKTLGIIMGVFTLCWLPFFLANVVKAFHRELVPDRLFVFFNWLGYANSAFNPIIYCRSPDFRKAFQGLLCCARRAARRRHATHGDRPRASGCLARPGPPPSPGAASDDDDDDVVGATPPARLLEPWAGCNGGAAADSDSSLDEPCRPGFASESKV
Mode: antagonist
| Structure (SMILES) | IC50 |
| --- | --- |
| c1cc(-c2cc3c(ccn3Cc3ccncc3)c(N3CCOCC3)n2)c2[nH]ncc2c1 | ≥ 100 µM |
| C=CCNC(=O)[C@@H]1Cc2cn(CC#CC)c3cccc(c23)[C@H](CC(C)C)N1 | ≥ 100 µM |
| O=C(Nc1cccc(C(F)(F)F)c1)N[C@H]1CO[C@H]2[C@@H]1OC[C@@H]2Nc1nccc(C2CCCC2)n1 | 11.2 µM |
| CC(C(O)c1ccccc1)N(C)CCOC(c1ccccc1)c1ccccc1 (stereo not drawn) | ≥ 100 µM |
| Cc1cc2c(-c3cccc(O)c3)nc(-c3c(C)noc3C)cc2[nH]1 | ≥ 100 µM |

Block 2
Target: Calcium/calmodulin-dependent protein kinase type II subunit alpha (CAMK2A, Homo sapiens, UniProt Q9UQM7)
Chain of UniProt Q9UQM7 (whole entry, looked up): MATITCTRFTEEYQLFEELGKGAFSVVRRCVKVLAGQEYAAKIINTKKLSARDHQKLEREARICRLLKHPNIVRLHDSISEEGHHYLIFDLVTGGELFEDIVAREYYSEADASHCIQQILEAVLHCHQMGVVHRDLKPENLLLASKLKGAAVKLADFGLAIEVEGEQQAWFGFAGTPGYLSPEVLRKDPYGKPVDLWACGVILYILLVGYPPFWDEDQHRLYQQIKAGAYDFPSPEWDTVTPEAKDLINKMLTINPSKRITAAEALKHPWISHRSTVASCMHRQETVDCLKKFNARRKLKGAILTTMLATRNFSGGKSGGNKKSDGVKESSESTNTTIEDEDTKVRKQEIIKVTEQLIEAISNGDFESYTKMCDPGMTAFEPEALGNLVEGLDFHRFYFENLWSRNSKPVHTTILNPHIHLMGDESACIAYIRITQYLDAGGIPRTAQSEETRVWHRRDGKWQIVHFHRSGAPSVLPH
Read-out: enzyme activity
Mode: inhibitor
Tested at: 10 µM
| SMILES | inhibition |
| --- | --- |
| COc1ccc([C@@H]2CC(=O)c3c(O)cc(O[C@@H]4O[C@H](CO)[C@@H](O)[C@H](O)[C@H]4O)cc3O2)cc1 | -17% |
| O=C1C=C(O)C(=O)c2ccccc21 | 9% |
| CCCCCCCCCCCCCCCCCCO | -33% |
| COc1cc2c(c(OC)c1OC)-c1ccc(OC)c(=O)cc1[C@@H](NC(C)=O)CC2 | 12% |
| C[C@H](Cc1ccc(O)c(O)c1)[C@@H](C)Cc1ccc(O)c(O)c1 | 3% |
| CC[C@]1(O)C[C@H]2CN(CCc3c([nH]c4ccccc34)[C@@](C(=O)OC)(c3cc4c(cc3OC)N(C=O)[C@H]3[C@@](O)(C(=O)OC)[C@H](OC(C)=O)[C@]5(CC)C=CCN6CC[C@]43[C@@H]65)C2)C1 | 11% |

Block 3
SMILES: CNC(=O)Nc1ccc2c(c1)[C@]1(CC2)OC(=O)N(CC(=O)N(Cc2ccc(F)cc2)[C@@H](C)C(F)(F)F)C1=O
Read-out: binding
Technique: radioligand binding
Tested at: 10 µM
| target | inhibition |
| --- | --- |
| HTR2B (Homo sapiens, UniProt P41595) | 29.2% |
| HTR3A (Homo sapiens, UniProt P46098) | -13% |
| HTR1D (Homo sapiens, UniProt P28221) | 2.22% |

Block 4
Host: human
Medium: microsomes or S9
Tested at: 2 µM
Time: 0.5 h
| Compound | remaining compound [%] |
| --- | --- |
| Nc1ncc(Br)cc1S(=O)(=O)NCCC(=O)NCc1ccco1 | > 100 |
| CC(C)(C)c1cc(-c2c(O)c3ccc(Cl)cc3[nH]c2=O)cc(C(C)(C)C)c1O | 89.9 |
| c1ccc(C(CNc2ccc3nnnn3n2)c2c[nH]c3ccccc23)cc1 (stereo not drawn) | 22.8 |
| Cc1ccccc1-c1nc2ccccc2cc1C(C)Nc1ncnc(Cl)c1N (stereo not drawn) | 39.2 |
| Brc1ccc2c3c(ccnc13)CCO2 | 0.0447 |
| CCCNS(=O)(=O)c1cc(N2CCCCS2(=O)=O)ccc1OC | 78.4 |
| CCC(CC)C(=O)N(Cc1ccccc1)Cc1nc(N(C)C)ncc1-c1ccccn1 | 0.566 |

Some of these lines once more (block 2):
| SMILES | inhibition |
| --- | --- |
| COc1ccc([C@@H]2CC(=O)c3c(O)cc(O[C@@H]4O[C@H](CO)[C@@H](O)[C@H](O)[C@H]4O)cc3O2)cc1 | -17% |
| O=C1C=C(O)C(=O)c2ccccc21 | 9% |
| COc1cc2c(c(OC)c1OC)-c1ccc(OC)c(=O)cc1[C@@H](NC(C)=O)CC2 | 12% |
